Published values from different studies.
Lines come from different studies, so protocols differ. ± marks the error that the study gave.
PYL4: PYL4 (Arabidopsis thaliana, UniProt O80920)
Chain of UniProt O80920 (whole entry, looked up): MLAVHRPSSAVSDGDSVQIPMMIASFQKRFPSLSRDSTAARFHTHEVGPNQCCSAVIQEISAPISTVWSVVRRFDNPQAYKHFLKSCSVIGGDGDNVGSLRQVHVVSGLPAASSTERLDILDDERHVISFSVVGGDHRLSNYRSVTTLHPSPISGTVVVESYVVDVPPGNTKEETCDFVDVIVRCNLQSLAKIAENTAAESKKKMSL
FPR1: fMet-Leu-Phe receptor (FPR1, Homo sapiens, UniProt P21462)
IDE: Insulin-degrading enzyme (IDE, Homo sapiens, UniProt P14735)
Chain of UniProt P17086 (whole entry, looked up): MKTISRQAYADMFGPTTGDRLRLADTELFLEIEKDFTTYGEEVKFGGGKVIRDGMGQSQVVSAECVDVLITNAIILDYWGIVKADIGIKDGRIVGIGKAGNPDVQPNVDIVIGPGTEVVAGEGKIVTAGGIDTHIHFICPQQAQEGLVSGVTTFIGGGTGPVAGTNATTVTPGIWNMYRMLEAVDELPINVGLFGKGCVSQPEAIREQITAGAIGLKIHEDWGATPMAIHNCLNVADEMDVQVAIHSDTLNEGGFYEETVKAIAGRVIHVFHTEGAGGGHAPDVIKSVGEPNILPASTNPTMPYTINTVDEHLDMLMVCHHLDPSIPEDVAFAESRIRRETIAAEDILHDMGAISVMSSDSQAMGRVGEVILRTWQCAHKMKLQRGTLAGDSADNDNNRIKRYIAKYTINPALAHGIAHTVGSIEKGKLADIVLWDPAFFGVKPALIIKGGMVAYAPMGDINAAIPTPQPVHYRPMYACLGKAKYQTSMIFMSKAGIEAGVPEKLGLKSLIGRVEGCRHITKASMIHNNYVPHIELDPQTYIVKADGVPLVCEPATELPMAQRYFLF
Chain of UniProt Q96SW2 (whole entry, looked up): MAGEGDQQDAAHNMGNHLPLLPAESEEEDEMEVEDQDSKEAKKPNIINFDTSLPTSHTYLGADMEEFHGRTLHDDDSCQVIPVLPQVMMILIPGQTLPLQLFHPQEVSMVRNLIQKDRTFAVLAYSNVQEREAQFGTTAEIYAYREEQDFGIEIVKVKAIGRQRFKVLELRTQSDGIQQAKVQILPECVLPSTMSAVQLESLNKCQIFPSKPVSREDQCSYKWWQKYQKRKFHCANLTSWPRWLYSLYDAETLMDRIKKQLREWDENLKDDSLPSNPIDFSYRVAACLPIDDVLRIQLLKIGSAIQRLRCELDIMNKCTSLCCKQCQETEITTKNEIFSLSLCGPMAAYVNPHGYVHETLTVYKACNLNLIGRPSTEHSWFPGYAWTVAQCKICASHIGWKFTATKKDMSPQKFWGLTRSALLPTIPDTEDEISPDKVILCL
Chain of UniProt Q704Y3 (whole entry, unmodified, looked up): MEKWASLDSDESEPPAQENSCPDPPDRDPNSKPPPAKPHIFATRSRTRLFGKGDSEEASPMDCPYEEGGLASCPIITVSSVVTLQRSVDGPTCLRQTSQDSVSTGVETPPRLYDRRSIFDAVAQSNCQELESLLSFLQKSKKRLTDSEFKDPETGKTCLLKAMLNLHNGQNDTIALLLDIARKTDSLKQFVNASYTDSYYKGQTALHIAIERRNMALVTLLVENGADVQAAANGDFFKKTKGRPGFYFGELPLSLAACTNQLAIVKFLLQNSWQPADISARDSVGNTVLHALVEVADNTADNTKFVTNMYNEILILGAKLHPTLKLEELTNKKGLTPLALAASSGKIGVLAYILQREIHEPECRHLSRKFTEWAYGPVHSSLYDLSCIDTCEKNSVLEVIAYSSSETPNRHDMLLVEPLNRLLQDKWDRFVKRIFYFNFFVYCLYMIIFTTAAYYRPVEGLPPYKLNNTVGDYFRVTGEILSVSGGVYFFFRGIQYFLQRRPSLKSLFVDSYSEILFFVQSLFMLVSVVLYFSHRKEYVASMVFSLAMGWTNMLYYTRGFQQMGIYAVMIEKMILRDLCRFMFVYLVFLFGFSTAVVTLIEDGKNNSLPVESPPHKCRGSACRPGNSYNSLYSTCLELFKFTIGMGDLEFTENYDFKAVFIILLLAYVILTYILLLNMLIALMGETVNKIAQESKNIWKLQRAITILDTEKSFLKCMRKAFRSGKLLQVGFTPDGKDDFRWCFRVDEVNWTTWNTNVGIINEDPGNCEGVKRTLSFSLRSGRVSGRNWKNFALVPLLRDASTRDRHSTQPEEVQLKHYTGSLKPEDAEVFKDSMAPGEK
Chain of UniProt Q13422 (whole entry, looked up): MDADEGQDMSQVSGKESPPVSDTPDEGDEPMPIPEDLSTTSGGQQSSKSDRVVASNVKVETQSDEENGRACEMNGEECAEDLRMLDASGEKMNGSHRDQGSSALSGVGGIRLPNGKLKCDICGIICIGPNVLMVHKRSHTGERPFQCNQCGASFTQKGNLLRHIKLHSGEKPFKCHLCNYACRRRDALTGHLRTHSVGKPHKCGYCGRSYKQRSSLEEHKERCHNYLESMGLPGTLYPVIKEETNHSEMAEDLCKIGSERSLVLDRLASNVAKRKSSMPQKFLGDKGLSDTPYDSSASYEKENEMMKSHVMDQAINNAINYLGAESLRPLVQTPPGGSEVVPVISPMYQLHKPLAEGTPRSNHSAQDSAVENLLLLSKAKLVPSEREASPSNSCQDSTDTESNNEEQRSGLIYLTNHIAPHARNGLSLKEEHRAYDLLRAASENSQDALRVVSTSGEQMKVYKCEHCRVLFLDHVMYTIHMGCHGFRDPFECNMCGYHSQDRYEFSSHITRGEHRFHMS
Chain of UniProt P35414 (whole entry, looked up): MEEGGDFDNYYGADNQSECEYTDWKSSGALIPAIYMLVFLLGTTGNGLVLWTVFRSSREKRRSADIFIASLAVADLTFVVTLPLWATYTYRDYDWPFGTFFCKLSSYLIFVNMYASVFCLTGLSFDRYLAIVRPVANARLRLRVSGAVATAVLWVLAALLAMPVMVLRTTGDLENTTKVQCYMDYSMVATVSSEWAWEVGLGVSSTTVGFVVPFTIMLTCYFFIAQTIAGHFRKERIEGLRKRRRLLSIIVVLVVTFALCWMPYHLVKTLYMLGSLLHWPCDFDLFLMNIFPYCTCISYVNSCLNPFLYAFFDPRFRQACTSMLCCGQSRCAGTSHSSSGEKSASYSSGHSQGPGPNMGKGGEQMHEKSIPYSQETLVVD
Chain of UniProt P11607 (whole entry, looked up): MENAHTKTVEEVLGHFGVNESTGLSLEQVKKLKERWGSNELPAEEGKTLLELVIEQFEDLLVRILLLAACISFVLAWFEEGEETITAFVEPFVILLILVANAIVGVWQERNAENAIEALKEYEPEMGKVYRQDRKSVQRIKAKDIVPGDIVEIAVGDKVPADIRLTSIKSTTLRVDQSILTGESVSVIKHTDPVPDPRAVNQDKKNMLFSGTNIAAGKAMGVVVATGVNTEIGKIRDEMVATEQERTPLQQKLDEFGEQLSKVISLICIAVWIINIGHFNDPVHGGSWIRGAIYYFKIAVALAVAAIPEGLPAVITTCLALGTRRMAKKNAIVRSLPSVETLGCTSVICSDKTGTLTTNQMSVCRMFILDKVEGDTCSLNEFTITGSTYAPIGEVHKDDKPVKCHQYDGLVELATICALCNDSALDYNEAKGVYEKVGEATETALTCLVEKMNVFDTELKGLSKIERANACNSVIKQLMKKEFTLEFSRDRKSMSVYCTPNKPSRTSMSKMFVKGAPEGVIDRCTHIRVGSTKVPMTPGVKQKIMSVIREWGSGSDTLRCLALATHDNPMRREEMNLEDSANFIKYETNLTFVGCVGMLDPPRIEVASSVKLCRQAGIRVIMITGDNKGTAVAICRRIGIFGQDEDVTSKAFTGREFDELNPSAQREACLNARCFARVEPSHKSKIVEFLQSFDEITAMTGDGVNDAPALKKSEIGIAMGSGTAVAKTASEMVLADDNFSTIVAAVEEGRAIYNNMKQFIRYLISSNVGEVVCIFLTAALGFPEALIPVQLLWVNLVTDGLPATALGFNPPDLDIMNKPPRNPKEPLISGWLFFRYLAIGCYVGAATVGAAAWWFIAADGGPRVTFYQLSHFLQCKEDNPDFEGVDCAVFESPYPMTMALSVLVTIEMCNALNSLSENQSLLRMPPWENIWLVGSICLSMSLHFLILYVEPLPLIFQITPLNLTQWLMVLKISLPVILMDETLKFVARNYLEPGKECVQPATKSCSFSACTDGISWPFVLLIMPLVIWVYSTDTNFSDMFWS
Chain of UniProt P35396 (whole entry, looked up): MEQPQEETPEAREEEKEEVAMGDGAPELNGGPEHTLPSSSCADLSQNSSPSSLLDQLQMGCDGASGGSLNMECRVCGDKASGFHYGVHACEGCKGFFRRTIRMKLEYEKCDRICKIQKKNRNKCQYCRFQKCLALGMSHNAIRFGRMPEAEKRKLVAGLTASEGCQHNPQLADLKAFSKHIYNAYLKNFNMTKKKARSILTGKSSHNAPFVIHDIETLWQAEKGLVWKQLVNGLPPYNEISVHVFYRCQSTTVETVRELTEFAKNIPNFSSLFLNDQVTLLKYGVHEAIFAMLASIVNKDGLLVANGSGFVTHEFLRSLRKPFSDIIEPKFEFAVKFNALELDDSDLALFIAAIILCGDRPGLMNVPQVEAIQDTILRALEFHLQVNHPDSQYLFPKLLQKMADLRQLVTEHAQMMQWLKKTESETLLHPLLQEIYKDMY

`CCCCCCCC/C=C\CCCCCCCC(=O)NCCc1ccc(O)c(O)c1` gave an EC50 of 0.09 ± 0.02 µM (Transient receptor potential cation channel subfamily V member 1 (Trpv1, Mus musculus, UniProt Q704Y3, R580K); ion current, agonist, whole-cell patch clamp; 24 °C, R580K, +80 mV).
For `CCC(C)(NCCc1ccc(Cl)c(C(F)(F)F)c1)c1cccc(NC2=CC(=O)N(C3CCC(=O)NC3=O)C2=O)c1` (stereo not drawn), the DC50 was 0.04 ± 0.005 µM (Cereblon/Ikaros (Homo sapiens, UniProt Q13422+Q96SW2); degrader; human cells).
The EC50 of `O=C(Cc1cc(C2CC2)c(-n2cc(CNC(=O)c3csc(Br)c3)nn2)c(C2CC2)c1)NC1(C(=O)O)CCCCC1` is reported as 0.247 ± 0.038 µM (PYL4; phosphatase activity recovery, antagonist; with: HAB1, ABA 5000 nM).
The viability of `Nc1ncn([C@@H]2O[C@H](CO)[C@@H](O)[C@H]2O)c(=O)n1` is reported as 123% (HBL-1; 0.5 µM, 120 h).
`N#Cc1ccc(C[C@@H](Nc2ncc(-c3ccc(F)cc3)o2)C(=O)N2CCc3ccccc32)cc1` gave an EC50 of > 50 µM (FPR1; calcium mobilization, agonist; HL-60 transfected with FPR1; inactive up to 50 µM).
The EC50 of `Cc1cccc(-c2ccc([C@@H]3[C@H]4CN(C(=O)c5cccnc5)CCCCN4[C@H]3CO)cc2)c1` is reported as 6.6 µM (IDE; enzyme activity, inhibitor, fluorogenic kinetic; with: Mca-RPPGFSAFK(Dnp)-OH substrate).
Under “log2 fold change”, `Cn1cc(-c2ccc(-c3cncc(Cl)c3N3CCC4(CCNC4=O)CC3)cc2)cn1` is recorded as -3.55 (COLO 205; gene expression, microarray, measured: SPIB mRNA; concentration not given, 6 h; baseline: untreated cells).
`Cc1ccccc1-c1ccc([C@@H]2[C@@H](CO)N3CCCCN(C(=O)NC4CCCC4)C[C@H]23)cc1` has an EC50 of 3.6 µM (IDE; enzyme activity, inhibitor, fluorogenic kinetic; with: Mca-RPPGFSAFK(Dnp)-OH substrate).
With `CCOCc1nc(O)c(-c2nnc(Cc3ccc(Cl)cn3)o2)c(O)c1-c1c(OC)cccc1OC` the EC50 was 0.00823 ± 0.00048 µM (Apelin receptor (APLNR, Homo sapiens, UniProt P35414); β-arrestin2 recruitment, agonist, BRET; HEK293).
With `CC(C)C[C@H](NC(=O)C[C@H](O)[C@H](CC(C)C)NC(=O)[C@H](Cc1c[nH]cn1)NC(=O)CNC(=O)[C@@H](NC(=O)[C@H](C)NC(=O)[C@H](Cc1c[nH]c2ccccc12)NC(=O)[C@H](CCC(N)=O)NC(=O)[C@@H](Cc1ccccc1)NC(=O)COCCOCCNC(=O)CCC(C(=O)O)N1CCN(CC(=O)O)CCN(CC(=O)O)CCN(CC(=O)O)CC1)C(C)C)C(N)=O` (stereo partly drawn) [lutetium-177 labelled] the tissue uptake was 13 ± 1.3 %ID/g (BALB/c nu/nu mice, PC-3 xenograft tumour; 250 pmol, 1 h, with: PA 300 µg).
`O=C(Cc1cc(C2CC2)c(-n2cc(CNC(=O)c3cnc(Br)s3)nn2)c(C2CC2)c1)NC1(C(=O)O)CCCCC1` gave an EC50 of 0.284 ± 0.049 µM (PYL4; phosphatase activity recovery, antagonist; with: HAB1, ABA 5000 nM).
The EC50 of `CC(C)(C)OC(=O)N1CCc2cc(CCOCCCCCc3ccccc3)ccc21` is reported as 0.7 ± 0.2 µM (ATP2A2 (Sus scrofa, UniProt P11607); ATPase activity, activator, NADH-coupled enzyme; enriched microsomes).
The EC50 of `Cc1cccc(-c2ccc([C@@H]3[C@@H](CO)N4C(=O)CN(C(=O)c5cnccn5)C[C@@H]34)cc2)c1` is reported as 5 µM (IDE; enzyme activity, inhibitor, fluorogenic kinetic; with: Mca-RPPGFSAFK(Dnp)-OH substrate).
With `N#Cc1ccc(C[C@@H](NC(=O)c2cc3ccc(F)cc3[nH]2)C(=O)N2CCc3ccccc32)cc1` the EC50 was > 50 µM (FPR1; calcium mobilization, agonist; HL-60 transfected with FPR1; inactive up to 50 µM).
For `CC(=O)Nc1cccc(-n2c(=O)n(C3CC3)c(=O)c3c(Nc4ccc(I)cc4F)n(C)c(=O)c(C)c32)c1`, the viability was 0.881 (NCI-H2087 (BRAF L597V); 1.56 nM, 72 h, unit not given; baseline: DMSO).
`O=C(O)CCCc1cc2cc(Cl)ccc2n1S(=O)(=O)c1ccc2ncsc2c1` gave an EC50 of 1.4 µM (Peroxisome proliferator-activated receptor delta (Ppard, Mus musculus, UniProt P35396); reporter gene, agonist, luciferase reporter; mouse; serum-free).
`O=C(Cc1cc(C2CC2)c(-n2cc(CNC(=O)c3ccc4ccccc4n3)nn2)c(C2CC2)c1)NC1(C(=O)O)CCCCC1` gave an EC50 of 0.171 ± 0.028 µM (PYL4; phosphatase activity recovery, antagonist; with: HAB1, ABA 5000 nM).
The EC50 of `Nc1nc(O)c2nc(Br)n([C@@H]3O[C@@H]4COP(=O)(O)O[C@H]4[C@H]3O)c2n1` is reported as 77 µM (Cone cGMP-gated channel (Morone saxatilis, UniProt Q3I0N1+Q3I0N2); cGMP-gated current, suction electrode; striped bass (Morone saxatilis), single cone outer segment; with: Ca2+ 20 µM).
With `O=C(Nc1ccc2c(O)cc(S(=O)(=O)O)cc2c1)Nc1ccc2c(O)cc(S(=O)(=O)O)cc2c1` the viability was 122% (HBL-1; 0.5 µM, 120 h).
For `Cc1ccccc1S(=O)(=O)N1CCCCN2[C@H](CO)[C@@H](c3ccc(-c4cccc(F)c4C)cc3)[C@@H]2C1`, the EC50 was 0.07 µM (IDE; enzyme activity, inhibitor, fluorescence kinetic; with: Mca-RPPGFSAFK(Dnp)-OH substrate).
`CC(=O)NO` gave an EC50 of 68300 ± 400 µM (Urease subunit alpha (ureC, Proteus mirabilis, UniProt P17086)).
